Assay results pooled from the literature.
A part holds a random share of what one study measured. Changes are numbered by the printed parent chain.

Set 1 — technique: protein binding microarray; molecule type: double-stranded DNA, one strand shown; sample: in vitro; tested at: not given; relative to: not given; reading: higher = stronger binding
Target: Histone acetyltransferase KAT6A, both winged helices, GST fusion (KAT6A, Homo sapiens, UniProt Q92794, residues 1-181)
Notes: 8-mer, flanks averaged, mean of 2 arrays, mostly near background
Target sequence (chain): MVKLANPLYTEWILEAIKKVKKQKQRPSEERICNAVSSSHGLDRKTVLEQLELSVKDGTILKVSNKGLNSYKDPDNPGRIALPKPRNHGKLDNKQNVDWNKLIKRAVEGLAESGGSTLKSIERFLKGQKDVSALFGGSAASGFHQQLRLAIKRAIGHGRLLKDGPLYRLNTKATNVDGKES
Sequence | E-score
ACCCCGCC | 0.269
AGCGTTAC | 0.0191
ATGGTAGG | -0.0831
GACATGCA | -0.117
GGCCAGTA | -0.0996
GCACGCCC | 0.155
CCAGGCGC | 0.0989

Set 2 — technique: DHFR PCA, deep sequencing; sample: yeast; added: (+)-ABA 1.4 µM; relative to: wild-type fitted maximum; reading: higher = stronger binding
Target: ABI1, truncated, D143A, DHFR fusion (Arabidopsis thaliana)
Notes: methotrexate growth selection, single substitutions
Starting sequence: PYL1, truncated, DHFR fusion (Arabidopsis thaliana); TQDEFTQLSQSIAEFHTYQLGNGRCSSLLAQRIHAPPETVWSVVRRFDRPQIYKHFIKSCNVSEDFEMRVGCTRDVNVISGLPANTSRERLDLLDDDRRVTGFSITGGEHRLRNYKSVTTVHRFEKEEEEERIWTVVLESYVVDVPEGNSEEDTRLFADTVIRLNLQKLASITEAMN
Substitution | relative binding score [%]
N177W | 44.3
M68R | -0.262
I33M | 20.8
F157Q | 10

Set 3 — target: CCNF, cyclin fold, Cln2 fusion (human); technique: yeast growth competition, sequencing; sample: yeast; notes: strong parent motif; relative to: not given; reading: higher = stronger binding
Starting sequence: SAMHD1 docking peptide (human); ASKSRVQLFKDDP; partner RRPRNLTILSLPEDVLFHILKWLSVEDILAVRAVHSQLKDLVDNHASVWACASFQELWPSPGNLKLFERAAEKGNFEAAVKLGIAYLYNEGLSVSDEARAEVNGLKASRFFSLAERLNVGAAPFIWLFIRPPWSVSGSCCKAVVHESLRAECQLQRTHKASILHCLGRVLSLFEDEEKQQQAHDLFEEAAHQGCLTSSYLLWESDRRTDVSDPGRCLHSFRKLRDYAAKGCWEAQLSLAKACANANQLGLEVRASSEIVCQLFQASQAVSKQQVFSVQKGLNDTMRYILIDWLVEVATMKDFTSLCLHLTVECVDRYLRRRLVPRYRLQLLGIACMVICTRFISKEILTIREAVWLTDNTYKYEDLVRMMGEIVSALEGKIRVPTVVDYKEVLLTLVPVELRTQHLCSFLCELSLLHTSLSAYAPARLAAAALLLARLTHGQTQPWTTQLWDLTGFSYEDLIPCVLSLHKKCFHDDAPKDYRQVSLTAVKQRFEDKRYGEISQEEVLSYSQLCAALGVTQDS
Substitution | normalised enrichment score
ASKSRVQLFGDDP [K10G] | 0.533
ASKSRVQLFWDDP [K10W] | 0.792
ASKSGVQLFKDDP [R5G] | 0.533
ASKSRYQLFKDDP [V6Y] | 0.216
ASKSRVQLFKEDP [D11E] | 1.4

Further values, each from its own experiment
Substance | target | test | test system | conditions | how to read | endpoint | value
PhoQ, residues 284 288 289 292 302 303 TAVSDG | PhoP, residues 12 14 15 18 19 NQGLL (Escherichia coli, UniProt P23836) | Sort-seq, item: YFP reporter | E. coli | PhoQ-PhoP variant library, added: 10 µM Mg2+ | relative to: high Mg2+ state, higher = stronger signaling | fold induction | 2.82
